# Assay results gathered from unrelated publications.
# Protocols differ between the studies behind these lines. ± gives the spread as reported.
Compound,tested on,test,system,setting,how to read,quantity,value
C[n+]1ccc(/C=N/NC(=O)N/N=C/c2cc[n+](C)cc2)cc1,myc22 MYC G4-DNA parallel,FRET melting,,"1 µM, K1 buffer, DNA 0.2 µM, with: ds26 10 µM",,ΔTm,3.1 ± 0.6 °C
C=C(NC(=O)c1csc(-c2nc3c(cc2O)-c2nc(cs2)C(=O)NC(C(C)O)C(=O)NC(=C(C)OC)c2nc(cs2)C(=O)NC2c4nc(cs4)C(=O)NC(COC(=O)c4c5c6c(cccc6n4O)COC(=O)C(OC4CC(C)(O)C(N(C)C)C(C)O4)C2OC5)c2nc-3cs2)n1)C(N)=O (stereo not drawn),Staphylococcus epidermidis,broth microdilution,methicillin-resistant isolates,,,MBC,0.25 µg/mL
O=C(N/N=C/c1cc[n+](CC2CC2)c2ccccc12)c1cccc(C(=O)N/N=C/c2cc[n+](CC3CC3)c3ccccc23)n1,myc22 MYC G4-DNA parallel,FRET melting,,"1 µM, K1 buffer, DNA 0.2 µM",,ΔTm,25.1 ± 0.3 °C
COc1ccc(C(=O)CCc2cc(C(CCc3ccc(O)cc3OC)c3ccc(O)cc3)c(O)cc2OC)cc1 (racemic),,,human blood,"3 µM, with: A23187",,20-OH-LTB4 level,824 ± 253 pg/mL
CCN(CC)CC(=O)Nc1cccc(-n2cc(-c3ccc4ccc(-c5cn(-c6cccc(NC(=O)CN(CC)CC)c6)nn5)cc4c3)nn2)c1,RCC4,"PCR angiogenesis array, item: IL8",,"5 x IC50, 4 h, normoxia",reference: untreated,fold regulation,-1.69
C[n+]1cccc2cc(/C=N/NC(=O)c3cccc(C(=O)N/N=C/c4ccc5c(ccc[n+]5C)c4)n3)ccc21,myc22 MYC G4-DNA parallel,FRET melting,,"1 µM, K1 buffer, DNA 0.2 µM",,ΔTm,19.6 ± 0.5 °C
C=CC(=O)Nc1cccc(Cn2ncc3cnc(Nc4cnn(CCOC)c4)nc32)c1,SGK2 human,"binding, KINOMEscan",,100 nM,lower = stronger binding,percent of control,76%
O=C(N/N=C/c1cc[n+](Cc2ccccc2)c2ccccc12)c1cccc(C(=O)N/N=C/c2cc[n+](Cc3ccccc3)c3ccccc23)n1,myc22 MYC G4-DNA parallel,FRET melting,,"1 µM, K1 buffer, DNA 0.2 µM, with: ds26 10 µM",,ΔTm,17.8 ± 2.5 °C
O=C(Oc1cc(OC(=O)c2cc(O)c(O)c(O)c2)c2ccccc2c1)c1cc(O)c(O)c(O)c1,herpes simplex virus 2,"ELISA, item: IL-6, TNF-α","333, BALB/c mice, genital herpes model, serum","15 and 30 mg/kg/day, 6 days post infection",,serum cytokine level,decreased
C[n+]1cc(/C=N/NC(=O)c2cccc(C(=O)N/N=C/c3cc4ccccc4[n+](C)c3)c2)cc2ccccc21,myc22 MYC G4-DNA parallel,FRET melting,,"1 µM, K1 buffer, DNA 0.2 µM",,ΔTm,12.5 ± 0.3 °C
CN1CCC[C@]1(C)/C=C/S(=O)(=O)NC(=O)Nc1c2c(cc3c1CCC3)CCC2,,,"human, whole blood ex vivo","400 mg single dose, 24 h, single ascending dose, with: LPS and ATP",,IL-1β inhibition,99.2%
COc1cc(O)ccc1CCC(c1ccc(O)cc1)c1cc2c(c(C)c1O)OC(c1ccc(O)cc1)CC2 (mixture of isomers),,,human blood,"3 µM, with: A23187",,DHA level,120000 ± 23700 pg/mL
CC[n+]1cccc2cc(/C=N/NC(=O)c3ccc4ccc(C(=O)N/N=C/c5ccc6c(ccc[n+]6CC)c5)nc4n3)ccc21,myc22 MYC G4-DNA parallel,FRET melting,,"1 µM, K1 buffer, DNA 0.2 µM",,ΔTm,19.5 ± 0.6 °C
Nc1ncc(-c2cc(-c3cnn(CC(F)(F)F)c3)ncc2F)nc1C(=O)NC1CNCC(F)C1 (stereo not drawn),CIT,KINOMEscan,,1 µM,reference: DMSO control,remaining binding,79%
COC1CN([C@H]2CC[C@H]([C@@]3(C)Oc4c(Cl)cc(C(=O)NCc5c(SC)cc(C)[nH]c5=O)c(C)c4O3)CC2)C1,,"RNA-seq, item: NRIP3 mouse homolog","mouse, HT-1376 xenograft, whole blood",dose not given,reference: vehicle,log2 fold change,1.19
C=CC(=O)N1[C@@H](c2ccc3c(c2)OCO3)c2[nH]c3ccccc3c2C[C@H]1C(=O)N1CCN(C)CC1,human cyclin E1 wild type-3xFLAG:CDK2,"co-IP with TMT proteomics, item: HNRNPH1",,"concentration not given, P31943",reference: wild type DMSO,relative co-enrichment,94%
CN1CCCNC(=O)c2cccc(c2)C(=O)NCCCN(C)CCCNc2cccc3c2C(=O)c2cccc(c2C3=O)NCCC1,SAS,"RNA-seq, item: PIGF mRNA",,"1 µM, 6 h",reference: untreated cells,log2 fold change,-0.671
CNCc1ccc2c(c1)C[C@H](CNC(=N)N)[C@H]2NC(=O)C(=O)Nc1ccc(Cl)c(F)c1,HIV-1,viral infection,"TZM-bl, CRF02_AG 235-47 Env pseudovirus",,,IC80,37.2 µM
CNS(=O)(=O)Nc1nccc(Cc2c(C)c3ccc(Oc4ncccc4F)cc3oc2=O)c1F,CAL-120,cell viability,,7 days,,IC50,> 1 µM
C[n+]1cccc2cc(/C=N/NC(=O)c3cc(C(=O)N/N=C/c4ccc5c(ccc[n+]5C)c4)ncn3)ccc21,myc22 MYC G4-DNA parallel,FRET melting,,"1 µM, K1 buffer, DNA 0.2 µM, with: ds26 10 µM",,ΔTm,3.6 ± 0.3 °C
c1ccc(-c2n[nH]cc2-c2ccnc3ccccc23)nc1,orf19.4518 Candida albicans,"kinase binding, MIB/MS competition",Candida albicans lysate,1 µM,reference: DMSO,log2 fold change,-0.13
O=C(N/N=C/c1cc[n+](CC2CC2)c2ccccc12)c1cncc(C(=O)N/N=C/c2cc[n+](CC3CC3)c3ccccc23)n1,myc22 MYC G4-DNA parallel,FRET melting,,"1 µM, K1 buffer, DNA 0.2 µM",,ΔTm,20.5 ± 0.3 °C
CCCCNCCO.O=C(O)C(Cl)Cl,Amaranthus retroflexus,herbicidal activity,,"15 mg/mL, 21 days, pre-emergence greenhouse",,inhibition,0%
Cc1ncsc1-c1ccc(C(C)NC(=O)C2CC(O)CN2C(=O)C(NC(=O)CCCCCCCCCCN2CCCC(Nc3ncc(Cl)c(Nc4ccccc4S(=O)(=O)C(C)C)n3)C2)C(C)(C)C)cc1 (stereo not drawn),22Rv1,"RNA-seq, item: PHLPP2 mRNA",,concentration not given,reference: DMSO,log2 fold change,-1.03

# Excerpt of the above:
Compound,tested on,test,system,setting,how to read,quantity,value
c1ccc(-c2n[nH]cc2-c2ccnc3ccccc23)nc1,orf19.4518 Candida albicans,"kinase binding, MIB/MS competition",Candida albicans lysate,1 µM,reference: DMSO,log2 fold change,-0.13
O=C(N/N=C/c1cc[n+](CC2CC2)c2ccccc12)c1cncc(C(=O)N/N=C/c2cc[n+](CC3CC3)c3ccccc23)n1,myc22 MYC G4-DNA parallel,FRET melting,,"1 µM, K1 buffer, DNA 0.2 µM",,ΔTm,20.5 ± 0.3 °C
CCCCNCCO.O=C(O)C(Cl)Cl,Amaranthus retroflexus,herbicidal activity,,"15 mg/mL, 21 days, pre-emergence greenhouse",,inhibition,0%
